Experimental data gathered from unrelated publications.
Parts stem from different laboratories: compare values within a part only. Several values in a cell are separate wells, animals, samples, runs or records.

Sample 1
Target: Histone acetyltransferase KAT6A, both winged helices, GST fusion (KAT6A, Homo sapiens, UniProt Q92794, residues 1-181)
Technique: protein binding microarray
Form: double-stranded DNA, one strand shown
Sample: in vitro
Tested at: not given
Notes: 8-mer, flanks averaged, mean of 2 arrays, mostly near background
Relative to: not given
Direction: higher = stronger binding
Measurement: E-score
Construct (chain): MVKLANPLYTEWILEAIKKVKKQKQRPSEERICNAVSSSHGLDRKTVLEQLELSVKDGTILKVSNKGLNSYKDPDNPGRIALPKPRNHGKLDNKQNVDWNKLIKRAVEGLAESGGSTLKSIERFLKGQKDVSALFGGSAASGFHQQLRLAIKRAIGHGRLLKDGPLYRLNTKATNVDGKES
Oligonucleotide = AGGCCGGC; result = 0.2
Oligonucleotide = ATCTTCAG; result = -0.0542
Oligonucleotide = CCAGGGAA; result = -0.0899
Oligonucleotide = AGTTAACC; result = 0.052
Oligonucleotide = GTGGTCGA; result = -0.145
Oligonucleotide = AATGGTAT; result = -0.186
Oligonucleotide = GCCACCTA; result = -0.0563
Oligonucleotide = AATGAACC; result = -0.0703

Sample 2
Target: Fragile X messenger ribonucleoprotein 1, C-terminal low-complexity region (Fmr1, Mus musculus, UniProt P35922)
Technique: RNA Bind-n-Seq
Form: RNA
Sample: in vitro
Tested at: 200 nM
Notes: whole 134-nt RNA, ends assumed
With: 150 mM LiCl
Relative to: input library
Direction: higher = stronger binding
Measurement: log2 enrichment
Library: 7-deaza-guanosine replaces G
Oligonucleotide = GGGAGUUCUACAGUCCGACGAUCAAGUCCUGUGCUACACAUCGUAUGUACCGAAUCGGGGAGGGGUGGGGUUUUUGGGGAAAGUAUUAUGUUACGCCGUUCGGAUCUGCACUUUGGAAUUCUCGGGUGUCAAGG; result = -0.595
Oligonucleotide = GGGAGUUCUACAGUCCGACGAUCAAGUCCUGUGCUACACAUCGUAUGUACCGAAUCGGUUUUGGUUUUGGGGUUUUGGGGAAAGUAUUAUGUUACGCCGUUCGGAUCUGCACUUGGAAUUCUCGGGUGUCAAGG; result = -0.965
Oligonucleotide = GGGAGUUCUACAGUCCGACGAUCUUCAGUUUCCCAAACCUGAGAUGAUCUGUCAGCUGGAGAACUGGGACGAGCAGUGGAUCCUGGAUCUACCGAGAACUGGGAAUAGGAAGGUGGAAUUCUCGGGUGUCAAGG; result = 0.367
Oligonucleotide = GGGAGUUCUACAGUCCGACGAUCUUCCUCAAGUCCUGUGCUACACAUCGUAUGUACCGAAUCGGCGGCGGCGGAAAGUAUUAUGUUACGCCGUUCGGAUCUGCACUUCCAGCAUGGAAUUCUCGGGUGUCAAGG; result = 0.736
Oligonucleotide = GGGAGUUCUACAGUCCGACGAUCCCUCAAGUCCUGUGCUACACAUCGUAUGUACCGAAUCGGGCGGGCGGGGCGGGAAAGUAUUAUGUUACGCCGUUCGGAUCUGCACUUCCAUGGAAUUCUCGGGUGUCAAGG; result = -0.528
Oligonucleotide = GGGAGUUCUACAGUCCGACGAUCGUCCUGUGCUACACAUCGUAUGUACCGAAUCGGGGAAAAAAAGGGGUGGGGUUUGGGGAAAGUAUUAUGUUACGCCGUUCGGAUCUGCACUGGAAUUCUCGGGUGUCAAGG; result = -0.405
Oligonucleotide = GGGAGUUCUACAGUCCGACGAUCUGGCCCUGGUGGCAUGCGGGGAGGAAGAUGUGGCCUCAUGGAUCGUGGUGGUCCCGGUGGAAUGUUCAGAGGUGGCCGUGGUGGAGACAGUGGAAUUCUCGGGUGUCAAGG; result = 0.054
Oligonucleotide = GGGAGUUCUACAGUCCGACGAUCACCAUGCAGGUGGGCAUCUUUGGGAAGUGGGGCAAGGGGGGGAUAGGGAGGGGGGUAACACUUUGGGAACAGGUGGUCCCAGGUCGAAACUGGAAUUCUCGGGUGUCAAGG; result = 1.41
Oligonucleotide = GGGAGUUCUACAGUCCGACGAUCUCCUGUGCUACACAUCGUAUGUACCGAAUCGGCCCCCCGGGGCCCCCCGGGCCCCCCGGAAAGUAUUAUGUUACGCCGUUCGGAUCUGCAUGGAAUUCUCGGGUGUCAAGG; result = -1.83
Oligonucleotide = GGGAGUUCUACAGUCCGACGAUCUGGGAGGUGGAUUUUGUUUAUUUUUUUAGCUCACUUCCAGGGGUGGGAAUUUUUUUUUAAUAUGUGUCAUGAAUAAAGUUGUUUUUGAAAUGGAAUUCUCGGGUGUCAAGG; result = 0.515
Oligonucleotide = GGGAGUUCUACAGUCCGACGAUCUUUCAGGGCGCCCUGCGUCCGGCAGAGGAGGCGAGCAUCCCGCUCAGGUGAUGAGGAACCCCUCGCGCACCCAGCGCAGAAGGCUGCUGCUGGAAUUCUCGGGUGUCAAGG; result = -3.01

Sample 3
Target: Sal-like protein 4, full length isoform A (SALL4, Homo sapiens, UniProt Q9UJQ4, residues 1-1053)
Sequence of UniProt Q9UJQ4 (whole entry, looked up): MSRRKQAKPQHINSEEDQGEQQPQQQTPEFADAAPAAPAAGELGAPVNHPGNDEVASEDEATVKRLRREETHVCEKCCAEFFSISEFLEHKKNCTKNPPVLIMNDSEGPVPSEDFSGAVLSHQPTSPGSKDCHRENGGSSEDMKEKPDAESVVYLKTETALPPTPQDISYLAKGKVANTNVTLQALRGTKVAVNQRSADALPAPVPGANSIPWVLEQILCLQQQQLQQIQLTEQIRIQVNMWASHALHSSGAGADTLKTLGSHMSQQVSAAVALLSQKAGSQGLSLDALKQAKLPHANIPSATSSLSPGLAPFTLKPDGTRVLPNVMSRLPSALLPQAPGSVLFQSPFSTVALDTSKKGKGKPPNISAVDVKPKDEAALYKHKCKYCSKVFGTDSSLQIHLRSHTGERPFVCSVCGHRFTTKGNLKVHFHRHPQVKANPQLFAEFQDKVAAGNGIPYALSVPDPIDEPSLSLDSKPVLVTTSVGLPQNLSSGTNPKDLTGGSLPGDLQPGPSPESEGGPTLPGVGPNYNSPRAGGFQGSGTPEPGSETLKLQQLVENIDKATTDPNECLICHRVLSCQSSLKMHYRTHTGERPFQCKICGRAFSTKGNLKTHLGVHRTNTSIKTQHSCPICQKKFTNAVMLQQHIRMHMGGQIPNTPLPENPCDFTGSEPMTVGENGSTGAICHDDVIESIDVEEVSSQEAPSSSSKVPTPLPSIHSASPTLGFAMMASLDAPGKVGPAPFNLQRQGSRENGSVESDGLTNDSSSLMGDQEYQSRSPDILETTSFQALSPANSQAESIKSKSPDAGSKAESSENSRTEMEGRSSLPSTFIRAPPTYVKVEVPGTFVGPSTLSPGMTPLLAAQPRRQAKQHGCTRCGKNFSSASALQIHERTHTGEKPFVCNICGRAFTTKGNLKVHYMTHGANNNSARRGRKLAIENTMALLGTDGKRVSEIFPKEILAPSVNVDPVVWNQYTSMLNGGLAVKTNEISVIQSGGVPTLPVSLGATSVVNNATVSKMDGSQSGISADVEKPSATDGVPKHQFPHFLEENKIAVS
Technique: universal PBM
Form: double-stranded DNA, one strand shown
Sample: in vitro
Tested at: 600 nM
Notes: 8-mer, flanks averaged, mean of replicates
Direction: higher = stronger binding
Measurement: E-score
Oligonucleotide = AGTGGGCG; result = -0.127
Oligonucleotide = GAGAGCAA; result = -0.0996
Oligonucleotide = CCATCACC; result = -0.0918
Oligonucleotide = AAAGCAAG; result = 0.16
Oligonucleotide = TCTCTGAA; result = -0.0557
Oligonucleotide = AAAATCAC; result = 0.205
Oligonucleotide = ACGGCCGG; result = -0.216
Oligonucleotide = ACCGTAGG; result = -0.237
Oligonucleotide = ATTCCGGC; result = -0.198
Oligonucleotide = GCACAGTA; result = 0.0442
Oligonucleotide = GCGCAAGA; result = -0.023
Oligonucleotide = GATTCGGA; result = 0.156
Oligonucleotide = CAATCATG; result = 0.145

Mixed results
Molecule = PhoQ, residues 284 288 289 292 302 303 GNNTDL; target = PhoP, residues 12 14 15 18 19 LWHSL (Escherichia coli, UniProt P23836); assay = Sort-seq, item: YFP reporter; test system = E. coli; setting = PhoQ-PhoP variant library, with: 10 µM Mg2+; how to read = relative to: high Mg2+ state, higher = stronger signaling; measurement = fold induction; result = 1.24 and 1.18

Some of these lines once more (sample 2):
Oligonucleotide = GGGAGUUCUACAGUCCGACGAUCUCCUGUGCUACACAUCGUAUGUACCGAAUCGGCCCCCCGGGGCCCCCCGGGCCCCCCGGAAAGUAUUAUGUUACGCCGUUCGGAUCUGCAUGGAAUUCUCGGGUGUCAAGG; result = -1.83
Oligonucleotide = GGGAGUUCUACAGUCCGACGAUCUGGGAGGUGGAUUUUGUUUAUUUUUUUAGCUCACUUCCAGGGGUGGGAAUUUUUUUUUAAUAUGUGUCAUGAAUAAAGUUGUUUUUGAAAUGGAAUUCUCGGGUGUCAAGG; result = 0.515
